Results collected from several papers.
Parts stem from different laboratories: compare values within a part only.

Sample 1
Target: Histone acetyltransferase KAT6A, winged helix 1, GST fusion (KAT6A, Homo sapiens, UniProt Q92794, residues 1-85)
Technique: protein binding microarray
Form: double-stranded DNA, one strand shown
Medium: in vitro
Concentration: not given
Notes: 8-mer, flanks averaged, mean of 2 arrays, mostly near background
Baseline: not given
Reading: higher = stronger binding
Residues (chain): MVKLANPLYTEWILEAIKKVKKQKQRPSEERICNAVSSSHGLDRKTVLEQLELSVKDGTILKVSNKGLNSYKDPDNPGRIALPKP
Oligonucleotide | E-score
ATCAGCCG | 0.271
CGGGGTGC | 0.299
AGATTCAT | -0.248
TTATCAAA | -0.133
GGGAGTTA | -0.0315
TCGGAAGA | -0.0385
CAGGTTAA | -0.0938
ACTTCCCC | -0.134

Sample 2
Target: Centromere-binding protein 1, full length, His-tagged (CBF1, Saccharomyces cerevisiae, UniProt P17106, residues 1-351)
Chain of UniProt P17106 (whole entry, looked up): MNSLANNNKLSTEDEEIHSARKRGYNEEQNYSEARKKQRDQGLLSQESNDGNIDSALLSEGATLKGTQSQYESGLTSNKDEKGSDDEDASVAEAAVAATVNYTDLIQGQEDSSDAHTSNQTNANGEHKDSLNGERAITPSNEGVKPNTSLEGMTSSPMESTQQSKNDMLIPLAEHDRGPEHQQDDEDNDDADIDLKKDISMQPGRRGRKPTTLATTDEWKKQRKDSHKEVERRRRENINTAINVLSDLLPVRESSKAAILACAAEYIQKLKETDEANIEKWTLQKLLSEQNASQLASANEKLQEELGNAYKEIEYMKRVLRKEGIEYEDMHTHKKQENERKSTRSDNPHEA
Technique: competition protein-binding microarray
Form: double-stranded DNA, one strand shown
Medium: in vitro
Concentration: 2 µM
Notes: whole 60-bp probe, lowest competitor level
Added: Pho4 competitor, 0.05 µM
Reading: higher = stronger binding
Oligonucleotide | fluorescence intensity [a.u.]
AATCCAAGTTTCGGCCACGATGGCAGCAGCCTATTGGTCTTGATTCGCTTGACGCTGCTG | 58.9
AGATGGAGAACCTGGCACGTGTACAAGAGTACAAGGGTCTTGATTCGCTTGACGCTGCTG | 1760
AAAGCGGTAATTTAACACGTGTTTTCACATATCTATGTCTTGATTCGCTTGACGCTGCTG | 3170
CTTCTGTAAATTTTTCACGTGAATTGACGCGCCCCGGTCTTGATTCGCTTGACGCTGCTG | 649

Sample 3
Target: Transcription factor Sp1 (SP1, Homo sapiens, UniProt P08047, residues 1-785, full length assumed)
Chain of UniProt P08047 (whole entry, looked up): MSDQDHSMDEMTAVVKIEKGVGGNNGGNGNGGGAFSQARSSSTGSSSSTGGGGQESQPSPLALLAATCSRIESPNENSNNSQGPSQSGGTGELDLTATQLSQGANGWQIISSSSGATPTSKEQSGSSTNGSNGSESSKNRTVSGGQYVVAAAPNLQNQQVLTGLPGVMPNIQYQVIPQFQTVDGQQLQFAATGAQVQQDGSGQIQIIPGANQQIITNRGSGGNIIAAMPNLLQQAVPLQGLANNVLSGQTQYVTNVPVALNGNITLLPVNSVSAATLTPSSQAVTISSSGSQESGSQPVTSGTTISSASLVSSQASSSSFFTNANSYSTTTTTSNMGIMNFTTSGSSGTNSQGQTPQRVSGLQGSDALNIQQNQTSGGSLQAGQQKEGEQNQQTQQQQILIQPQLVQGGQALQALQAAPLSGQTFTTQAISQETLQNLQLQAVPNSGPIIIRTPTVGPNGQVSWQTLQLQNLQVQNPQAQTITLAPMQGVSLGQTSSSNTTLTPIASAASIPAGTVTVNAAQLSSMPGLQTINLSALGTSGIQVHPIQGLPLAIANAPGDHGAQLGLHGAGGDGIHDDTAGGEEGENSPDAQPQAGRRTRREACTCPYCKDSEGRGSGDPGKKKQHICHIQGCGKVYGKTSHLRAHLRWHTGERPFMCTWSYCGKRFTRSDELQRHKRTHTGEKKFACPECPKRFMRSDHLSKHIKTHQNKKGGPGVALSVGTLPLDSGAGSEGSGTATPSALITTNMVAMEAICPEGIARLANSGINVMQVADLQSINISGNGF
Technique: protein-binding microarray
Form: double-stranded DNA, one strand shown
Medium: in vitro
Concentration: not given
Notes: k-mer, scored over probes, only values ≥0.25
Reading: higher = stronger binding
Oligonucleotide | E-score
ATCCCCAC | 0.417
TACCCCTA | 0.315
CGCCCCAA | 0.296

Mixed results
Molecule | target | assay | test system | conditions | scale | quantity | value
PhoQ, residues 284 288 289 292 302 303 TLMATV | PhoP, residues 12 14 15 18 19 AWHSL (Escherichia coli, UniProt P23836) | Sort-seq, refers to: YFP reporter | E. coli | PhoQ-PhoP variant library, added: 10 µM Mg2+ | baseline: high Mg2+ state, higher = stronger signaling | fold induction | 2.67

Repeated from above (sample 3):
Oligonucleotide | E-score
TACCCCTA | 0.315
CGCCCCAA | 0.296
